Measured values from different studies.
Numbered parts are unrelated; each lists some results of a single study.

Study 1
Target: Prothrombin, mature alpha-thrombin (F2, Homo sapiens, UniProt P00734)
Method: aptamer microarray, sandwich
Molecule type: DNA with 2'F-ANA
Sample: in vitro
Concentration: 200 nM
Notes: whole 15-mer aptamer, many near background
Added: Cy3 exosite-II aptamer, 400 nM
Direction: higher = stronger binding
Sequence	mean fluorescence intensity
GGTTGGTGTGGTTGG (2'F-ANA at 3 7 8 10 12 13 14 15)	403 a.u.
GGTTGGTGTGGTTGG (2'F-ANA at 1 2 4 7 9 10 12 15)	57.5 a.u.
GGTTGGTGTGGTTGG (2'F-ANA at 1 4 5 7 8 9 10 12 13 14)	46.5 a.u.

Study 2
Target: RNA binding protein fox-1 homolog 2, RRM domain, GST-SBP tag (RBFOX2, Homo sapiens, UniProt O43251-10, residues 100-194)
Method: RNA Bind-n-Seq
Molecule type: RNA
Sample: in vitro
Concentration: 365 nM
Notes: natural RNA segment, single round, ends assumed
Relative to: no-protein control
Direction: higher = stronger binding
Sequence	RBNS enrichment (R)
GGGAGUUCUACAGUCCGACGAUCCGCUUGGGAAACGGGCAGUGGUAGUGGGGCGCCAGCUUGAGCUUUCCUGGCACCUGUAGCAUCGAGUGUCUUCUUUGUCUUCUCUCCUCACCCAACUCCCUCUGCCUCUCUGGAAUUCUCGGGUGCCAA	1.06
GGGAGUUCUACAGUCCGACGAUCUUUAAAUGUAGUUUGUAUUGUACUGGGGGACCUUUCGUUGUUGUUGUUUGCUUAAACUGUGAUUUUUUUUCCCCUCCCUAAUUUCAGGGGUGAGAUUGACUUUGGGAAGAUGGAAUUCUCGGGUGCCAA	9.7
GGGAGUUCUACAGUCCGACGAUCAGUUCUGUUCAGCCAUCAGAAGAGAGACAAGGAAUUAAAAAUUUCUUUUUAAUCCUGUUACCAAAUAGCCAUUUGUCUCUUCUCUUUACUUUUAGAAUAUCAACUUUUUUUGGAAUUCUCGGGUGCCAA	0.43

Study 3
Target: Histone acetyltransferase KAT6A, winged helix 2, GST fusion (KAT6A, Homo sapiens, UniProt Q92794, residues 85-181)
Method: protein binding microarray
Molecule type: double-stranded DNA, one strand shown
Sample: in vitro
Concentration: not given
Notes: 8-mer, flanks averaged, mean of 2 arrays, mostly near background
Relative to: not given
Direction: higher = stronger binding
Residues (chain): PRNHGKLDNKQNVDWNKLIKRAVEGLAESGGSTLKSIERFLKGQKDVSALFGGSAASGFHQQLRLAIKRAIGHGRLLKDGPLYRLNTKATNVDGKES
Sequence	E-score
ATATCCAA	0.0571
GGAAATGA	0.0472
CTAATCTC	0.0251
CTGACAGA	-0.00987
GCTCATAA	0.0171

Single results of other studies
Substance	target	test	system	conditions	scale	quantity	value
PhoQ, residues 284 288 289 292 302 303 TNASYF	PhoP, residues 12 14 15 18 19 TTLRV (Escherichia coli, UniProt P23836)	Sort-seq, refers to: YFP reporter	E. coli	PhoQ-PhoP variant library, added: 10 µM Mg2+	relative to: high Mg2+ state, higher = stronger signaling	fold induction	3.2

Some of these lines once more (study 2):
Sequence	RBNS enrichment (R)
GGGAGUUCUACAGUCCGACGAUCAGUUCUGUUCAGCCAUCAGAAGAGAGACAAGGAAUUAAAAAUUUCUUUUUAAUCCUGUUACCAAAUAGCCAUUUGUCUCUUCUCUUUACUUUUAGAAUAUCAACUUUUUUUGGAAUUCUCGGGUGCCAA	0.43
